Measurements from different studies.
Lines come from different studies, so protocols differ. “And” joins repeats or separate records; there may be more than shown. pIC50: −log10 of the molar value.
Read-out: enzyme activity
Action: inhibitor
PIK3CA: Phosphatidylinositol 4,5-bisphosphate 3-kinase catalytic subunit alpha isoform (PIK3CA, Homo sapiens, UniProt P42336)
Chain of UniProt P42336 (whole entry, unmodified, looked up): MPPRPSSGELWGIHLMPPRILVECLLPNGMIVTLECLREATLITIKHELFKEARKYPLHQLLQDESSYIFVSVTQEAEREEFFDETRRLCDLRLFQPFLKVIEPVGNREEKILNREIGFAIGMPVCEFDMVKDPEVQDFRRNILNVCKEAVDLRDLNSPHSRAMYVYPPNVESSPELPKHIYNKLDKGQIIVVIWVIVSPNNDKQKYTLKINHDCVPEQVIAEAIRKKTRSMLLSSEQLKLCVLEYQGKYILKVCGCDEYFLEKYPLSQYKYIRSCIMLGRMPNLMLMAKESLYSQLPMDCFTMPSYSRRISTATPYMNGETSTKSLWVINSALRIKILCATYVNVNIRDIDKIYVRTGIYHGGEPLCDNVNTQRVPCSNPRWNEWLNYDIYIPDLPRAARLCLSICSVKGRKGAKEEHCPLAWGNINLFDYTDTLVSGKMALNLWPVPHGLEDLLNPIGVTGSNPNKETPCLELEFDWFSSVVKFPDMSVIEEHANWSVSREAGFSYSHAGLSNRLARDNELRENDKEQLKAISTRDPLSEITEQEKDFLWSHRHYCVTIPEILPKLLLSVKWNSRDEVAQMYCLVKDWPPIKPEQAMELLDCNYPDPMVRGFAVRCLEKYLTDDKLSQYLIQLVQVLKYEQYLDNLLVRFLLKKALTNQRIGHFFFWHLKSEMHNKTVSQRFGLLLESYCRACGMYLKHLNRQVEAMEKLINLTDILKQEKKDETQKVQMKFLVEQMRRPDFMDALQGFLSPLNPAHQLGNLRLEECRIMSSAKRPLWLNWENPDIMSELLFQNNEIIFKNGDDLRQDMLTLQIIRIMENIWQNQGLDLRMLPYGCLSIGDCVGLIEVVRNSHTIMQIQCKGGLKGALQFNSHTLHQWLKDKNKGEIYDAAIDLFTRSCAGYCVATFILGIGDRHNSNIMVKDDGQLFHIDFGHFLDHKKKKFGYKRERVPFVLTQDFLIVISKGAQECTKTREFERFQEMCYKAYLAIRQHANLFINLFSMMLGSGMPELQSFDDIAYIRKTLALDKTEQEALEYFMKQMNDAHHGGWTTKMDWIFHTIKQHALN
PIK3CA with p85: Phosphatidylinositol 4,5-bisphosphate 3-kinase catalytic subunit alpha isoform, with p85 (PIK3CA, Homo sapiens, UniProt P42336)

Compound | target | test | pIC50
Cc1ccc(CN2C(=O)/C(=N\c3ccc(Cl)cc3Br)c3ccccc32)cc1 | PIK3CA | ADP detection | 8.06
Nc1ccc(C(=O)NC2=Nc3ccccc3C3=NCCN23)cn1 | PIK3CA | radiometric | 7.92
COC(=O)CCSc1nc2n(n1)C(c1cccc(OC)c1)C(C(=O)Nc1cncc(C)c1)=C(C)N2 (centres unmarked) | PIK3CA with p85 | ADP detection | 6.05
O=C(/C=C/c1ccccc1)Oc1ccc2c(c1)O/C(=C\C=C\c1ccccc1)C2=O | Phosphatidylinositol 4,5-bisphosphate 3-kinase catalytic subunit alpha isoform, with p85 alpha (PIK3CA, Homo sapiens, UniProt P42336) | ELISA | < 6.00
N#Cc1c(N)nc(N)nc1OCC1CCCCC1 | PIK3CA |  | 5.35 and 5.11
CCOc1cc(/C=C2\SC(=S)NC2=O)ccc1O | PIK3CA | radiometric | 5.52
COc1cccc(C2C(C(=O)Nc3cccnc3)=C(C)Nc3nc(SCc4ccncc4)nn32)c1 (centres unmarked) | PIK3CA with p85 | ADP detection | < 5.00
COc1ccc(/C=C2\SC(=S)NC2=O)c2ccccc12 | PIK3CA | radiometric | 5.05
C[C@@H]1CN=C2c3ccccc3N=C(NC(=O)c3cccnc3)N21 | PIK3CA | radiometric | < 6.00
O=C1NC(=S)S/C1=C\c1ccc([N+](=O)[O-])cc1 | PIK3CA | radiometric | 4.66
Cc1nc(NC(=O)N2CCCC2)sc1-c1csc(C(C)(C)C)n1 | PIK3CA (Homo sapiens, UniProt P42336, E545K) | TR-FRET | 6.27

Excerpt of the above:
Compound | target | test | pIC50
COC(=O)CCSc1nc2n(n1)C(c1cccc(OC)c1)C(C(=O)Nc1cncc(C)c1)=C(C)N2 (centres unmarked) | PIK3CA with p85 | ADP detection | 6.05
